Experimental data pooled from the literature.
“And” joins repeats or separate records; there may be more than shown. ± gives the spread as reported.

SMILES | test | system | conditions | how to read | Tmax
C1=C/COCc2cc(ccc2OCCN2CCCC2)Nc2nccc(n2)-c2cccc(c2)COC/1 | – | Sprague-Dawley rats, male, plasma | oral, dose not given, added: isavuconazole | relative to: isavuconazole alone | 15 % decrease
O=C1c2ccncc2C(=O)c2c1[nH]c1ccccc21 | – | Sprague-Dawley rat, female, plasma | intravenous, 1 mg/kg | – | 4.8 min
NS(=O)(=O)c1ccc(-n2nc(C(F)(F)F)cc2-c2ccc(CO)cc2)cc1 | – | Sprague-Dawley rat, whole blood | oral, 20 mg/kg of celecoxib | – | 798 min and 800 min
CNC(=O)c1cccc(-c2ccc(O[C@H]3O[C@H](CO)[C@@H](O)[C@H](O)[C@@H]3O)c(C)c2)c1 | – | Sprague-Dawley rat, male, plasma | oral, 10 mg/kg | – | 15 min and 120 min
Cc1cccc(CNC(=O)c2cn(CCNC(=O)c3ccccc3Sc3c([N+](=O)[O-])ncn3C)c3cc4c(cc3c2=O)OC(F)(F)O4)n1 | – | Sprague-Dawley rat, male, whole blood | intramuscular, 10 mg/kg of parent drug | – | 4.98 min
CCCCCCCCc1ccc(CCC(N)(CO)CO)cc1 | – | male Sprague-Dawley rat, heart | oral, 1 mg/kg, single dose | – | 480 min
CCCc1c(-c2ccc(O)cc2)nn(-c2ccc(O)cc2)c1-c1ccc(O)cc1 | item: total aglycone | rat, Long-Evans, female, serum | subcutaneous, 2 mg/kg single dose | – | 60 min
O=C(O)C1=CO[C@@H](O[C@@H]2O[C@H](CO)[C@@H](O)[C@H](O)[C@H]2O)[C@@H]2C(CO)=CC[C@H]12 | – | rat, plasma | oral, 500 mg/kg Eu + 217 mg/kg Pc extract, dosed as combined Eu and Pc extracts | – | 180 ± 52.2 min
CSc1ccccc1C(=O)NCCn1cc(C(=O)NCc2cccc(C)n2)c(=O)c2cc3c(cc21)OC(F)(F)O3 | – | Sprague-Dawley rat, male, plasma | intravenous, 5 mg/kg of parent compound | – | 4.98 min
Nc1nc(O)c2ncn(COC(CO)CO)c2n1 | – | Sprague-Dawley rat, male | oral, 10 mg/kg | – | 65 ± 35 min
O=C(O)CCSC[C@H]1O[C@@H]2O[C@H]3[C@H](O)[C@@H](O)[C@@H](O[C@H]4[C@H](O)[C@@H](O)[C@@H](O[C@H]5[C@H](O)[C@@H](O)[C@@H](O[C@H]6[C@H](O)[C@@H](O)[C@@H](O[C@H]7[C@H](O)[C@@H](O)[C@@H](O[C@H]8[C@H](O)[C@@H](O)[C@@H](O[C@H]9[C@H](O)[C@@H](O)[C@@H](O[C@H]1[C@H](O)[C@H]2O)O[C@@H]9CSCCC(=O)O)O[C@@H]8CSCCC(=O)O)O[C@@H]7CSCCC(=O)O)O[C@@H]6CSCCC(=O)O)O[C@@H]5CSCCC(=O)O)O[C@@H]4CSCCC(=O)O)O[C@@H]3CSCCC(=O)O | – | Sprague Dawley rat, plasma | intranasal, 5 mg/kg, added: rocuronium bromide IV | – | 42 min
CC[C@@H]([C@H](C)O)n1ncn(-c2ccc(N3CCN(c4ccc(OC[C@@H]5CO[C@@](Cn6cncn6)(c6ccc(F)cc6F)C5)cc4)CC3)cc2)c1=O | – | Sprague-Dawley rats, plasma | oral, 40 mg/kg, added: zanubrutinib 16 mg/kg | – | 720 min
CN1CCC[C@H](CN2c3ccccc3Sc3ccccc32)C1.Cl | – | Wistar rats, female, kidney | oral, 16 mg/kg | – | 360 min
N=C(N)NCCNC(=O)C1(Nc2ccccc2)CCN(Cc2ccccc2)CC1 | – | Sprague-Dawley rats, both sexes, plasma | oral, 50 mg/kg, mean of both sexes | – | 12 min
O=C(O)c1cc(O)c(O)c(O)c1 | – | rat, plasma | oral, 500 mg/kg extract, extract | – | 56.4 ± 3.6 min
CC(C)c1nc(N(C)S(C)(=O)=O)nc(-c2ccc(F)cc2)c1/C=C/[C@@H](O)C[C@@H](O)CC(=O)O | – | rat, Wistar albino, plasma | oral, 20 mg/kg | – | 204 min
Cc1cccc(CNC(=O)c2cn(CCNC(=O)c3ccccc3S)c3cc4c(cc3c2=O)OC(F)(F)O4)n1 | – | Sprague-Dawley rat, male, whole blood | intramuscular, 10 mg/kg of parent drug | – | 43.2 ± 38.4 min
OCC1=C[C@@H](O)[C@@H]2C=CO[C@@H](O[C@@H]3O[C@H](CO)[C@@H](O)[C@H](O)[C@H]3O)[C@H]12 | – | rat, plasma | oral, 500 mg/kg Eu extract, dosed as Eu extract | – | 120 ± 90 min
CCc1cc(C(=O)NC)c2nccc(N3CCc4c(cc(Cn5ccnc5)cc4-c4cn(C)nc4C(F)(F)F)C3=O)c2c1 | – | Sprague Dawley rat, male, plasma | oral, 50 mg/kg once daily, 7 days | – | 60 min
CCCCOCCOc1ccc(-c2ccc3c(c2)/C=C(/C(=O)Nc2ccc([S@@+]([O-])Cc4cncn4CCC)cc2)CCCN3CC(C)C)cc1 | – | moderate hepatic impairment patients, plasma | oral, 150 mg, day 1, single dose, geometric mean | – | 324 min
CNC(=O)c1cccc(-c2ccc([C@@H](O)[C@H]3O[C@H](CO)[C@@H](O)[C@H](O)[C@@H]3O)c(C)c2)c1 | – | male Sprague-Dawley rat, plasma | oral, 10 mg/kg, group mean | – | 40 min
C=CC(=O)N1CCC(Oc2cc3c(Nc4ccc(Cl)c(Cl)c4F)ncnc3cc2OC)CC1 | – | Sprague-Dawley rat, male, plasma | oral, 2 mg/kg, 1 weeks pretreatment, added: Schisandrin A 20 mg/kg daily pretreatment | – | 16.8 ± 10.2 min
COC(=O)C1=CO[C@@H](O[C@@H]2O[C@H](CO)[C@@H](O)[C@H](O)[C@H]2O)[C@@H]2C(CO)=CC[C@H]12 | – | rat, plasma | oral, 500 mg/kg Eu + 217 mg/kg Pc extract, dosed as combined Eu and Pc extracts | – | 37.8 ± 31.8 min
Cc1cc(-c2ccc3cc[nH]c(=O)c3c2)ccc1O[C@H]1O[C@H](CO)[C@@H](O)[C@H](O)[C@@H]1O | – | Sprague-Dawley rat, male, plasma | intravenous, 3 mg/kg | – | 4.98 min
COc1cc2nccc(Oc3ccc(NC(=O)NC4CC4)c(Cl)c3)c2cc1C(N)=O | UPLC-MS/MS | Sprague-Dawley rat, male, plasma | oral, 10 mg/kg, without azole co-treatment | – | 55.2 ± 12 min
CCCCCOC(=O)Nc1nc(=O)n([C@@H]2O[C@H](C)[C@@H](O)[C@H]2O)cc1F | – | Sprague-Dawley rat, plasma | oral, 200 mg/kg, added: chitooligosaccharide 20 min before glucosamine 250 mg/kg | – | 9.17 ± 2.04 min
O=c1oc2c(O)c(O)cc3c(=O)oc4c(O)c(O)cc1c4c23 | – | rat, plasma | oral, 1000 mg/kg extract, possible metabolite or extract component | – | 79.8 ± 19.8 min
C=CC(=O)N1CCC[C@@H](n2nc(-c3ccc(Oc4ccccc4)cc3)c3c(N)ncnc32)C1 | – | male Wistar rat, liver | oral, 50 mg/kg | – | 45 ± 0.6 min
